{"data": "Experimental data from different studies", "MAD2L2 R124A": "MAD2L2 R124A (Homo sapiens, UniProt Q9UI95)", "AfsR 1-980": "AfsR 1-980 (Streptomyces avermitilis)", "MAVS": "MAVS 1-513 (Homo sapiens, UniProt Q7Z434)", "T1": "NR1I2 ligand-binding domain, GST fusion (Homo sapiens); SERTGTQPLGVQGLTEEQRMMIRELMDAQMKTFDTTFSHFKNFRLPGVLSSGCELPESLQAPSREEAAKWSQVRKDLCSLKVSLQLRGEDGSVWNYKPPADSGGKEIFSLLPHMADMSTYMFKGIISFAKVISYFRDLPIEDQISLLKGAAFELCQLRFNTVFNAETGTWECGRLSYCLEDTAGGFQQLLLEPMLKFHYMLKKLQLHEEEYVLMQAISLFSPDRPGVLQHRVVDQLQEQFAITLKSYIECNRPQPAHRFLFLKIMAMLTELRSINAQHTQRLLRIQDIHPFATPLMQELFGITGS", "T2": "AfsR 1-980 (Streptomyces avermitilis); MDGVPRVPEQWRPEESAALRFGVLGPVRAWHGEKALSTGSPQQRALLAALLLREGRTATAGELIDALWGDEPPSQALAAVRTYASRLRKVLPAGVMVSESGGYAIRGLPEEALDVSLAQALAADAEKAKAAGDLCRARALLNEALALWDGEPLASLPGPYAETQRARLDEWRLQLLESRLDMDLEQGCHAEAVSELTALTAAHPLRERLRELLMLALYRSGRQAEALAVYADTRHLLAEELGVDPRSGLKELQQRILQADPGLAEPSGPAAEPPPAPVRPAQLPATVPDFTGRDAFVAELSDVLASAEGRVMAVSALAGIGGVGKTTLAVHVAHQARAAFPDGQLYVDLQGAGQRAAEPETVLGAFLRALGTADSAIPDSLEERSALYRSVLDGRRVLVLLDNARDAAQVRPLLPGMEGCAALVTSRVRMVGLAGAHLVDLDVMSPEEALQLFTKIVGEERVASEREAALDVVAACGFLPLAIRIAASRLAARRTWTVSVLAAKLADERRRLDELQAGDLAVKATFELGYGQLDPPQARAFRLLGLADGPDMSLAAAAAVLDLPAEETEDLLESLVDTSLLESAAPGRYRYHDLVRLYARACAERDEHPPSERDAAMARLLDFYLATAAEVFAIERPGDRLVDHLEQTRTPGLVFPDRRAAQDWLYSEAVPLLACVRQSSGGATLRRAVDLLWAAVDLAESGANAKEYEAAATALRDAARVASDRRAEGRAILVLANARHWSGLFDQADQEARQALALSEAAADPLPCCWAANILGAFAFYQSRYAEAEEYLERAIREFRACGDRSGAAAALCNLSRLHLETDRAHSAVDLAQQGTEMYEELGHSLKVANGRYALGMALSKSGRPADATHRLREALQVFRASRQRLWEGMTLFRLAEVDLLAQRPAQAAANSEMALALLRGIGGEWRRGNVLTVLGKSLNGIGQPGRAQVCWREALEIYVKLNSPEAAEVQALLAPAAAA", "B1": "TNKS2 ARC4 domain (Homo sapiens); fluorescent label; chain GNSEADRQLLEAAKAGDVETVKKLCTVQSVNCRDIEGRQSTPLHFAAGYNRVSVVEYLLQHGADVHAKDKGGLVPLHNACSYGHYEVAELLVKHGAVVNVADLWKFTPLHEAAAKGKYEICKLLLQHGADPTKKNRDGNTPLDLVKDGDTDIQDLLRGDAAL", "B2": "FAM222A 151-452 (Homo sapiens, UniProt Q5U5X8); sequence looked up; chain PSTLGPLAYPKPPEAPAPPPGLPAAATAASVIPLPGRGLPLPPSNLPSIHSLLYQLNQQCQAPGAAPPACQGMAIPHPSPAKHGPVPSFPSMAYSAAAGLPDCRKGTELGQGATQALTLAGAAKPAGYADSGLDYLLWPQKPPPPPPQPLRAYSGSTVASKSPEACGGRAYERASGSPLNCGVGLPTSFTVGQYFAAPWNSVLVTPTSDCYNPAAAVVVTELGPGAARELAGPPADALSGLPSKSVCNTSVLSSSLQSLEYLINDIRPPCIKEQMLGKGYETVAVPRLLDHQHAHIRLPVYR", "B3": "vraS intracellular domain D242G (Staphylococcus aureus, UniProt Q99SZ7); sequence looked up; chain GSVLAYKINQQNDWIKTQIERSMEGETVGINDQNIEIYSETLDLYHTLVPLNQELHKLRLKTQNLTNENYNINDVKVKKIIEDERQRLARELHDSVSQQLFAASMMLSAIKETKLEPPLDQQIPILEKMVQDSQLEMRALLLHLRPLGLKDKSLGEGIKDLVIDLQKKVPMKVVHEIQGFKVPKGIEDHLFRITQEAISNTLRHSNGTKVTVELFNKDDYLLLRIQDNGKGFNVDEKLEQSYGLKNMRERALEIGATFHIVSLPDSGTRIEVKAPLNKEDSYDD", "B4": "Mena EVH1 1-113 (Homo sapiens, UniProt Q8N8S7); chain MSEQSICQARAAVMVYDDANKKWVPAGGSTGFSRVHIYHHTGNNTFRVVGRKIQDHQVVINCAIPKGLKYNQATQTFHQWRDARQVYGLNFGSKEDANVFASAMMHALEVLNS", "B5": "FAM222A (Homo sapiens, UniProt Q5U5X8); sequence looked up; chain MLACLQRTQNAPGQHLACPSKSLELRKCEAVASAMHSSRYPSPAELDAYAEKVANSPLSIKIFPTNIRVPQHKHLSRTVNGYDTSGQRYSPYPQHTAGYQGLLAIVKAAVSSSSTAAPAGPAKSVLKSAEGKRTKLSPAAVQVGIAPYPVPSTLGPLAYPKPPEAPAPPPGLPAAATAASVIPLPGRGLPLPPSNLPSIHSLLYQLNQQCQAPGAAPPACQGMAIPHPSPAKHGPVPSFPSMAYSAAAGLPDCRKGTELGQGATQALTLAGAAKPAGYADSGLDYLLWPQKPPPPPPQPLRAYSGSTVASKSPEACGGRAYERASGSPLNCGVGLPTSFTVGQYFAAPWNSVLVTPTSDCYNPAAAVVVTELGPGAARELAGPPADALSGLPSKSVCNTSVLSSSLQSLEYLINDIRPPCIKEQMLGKGYETVAVPRLLDHQHAHIRLPVYR", "note": "Numbers after ± are the reported error.", "sequence of UniProt Q7Z434 (whole entry, unmodified, looked up)": "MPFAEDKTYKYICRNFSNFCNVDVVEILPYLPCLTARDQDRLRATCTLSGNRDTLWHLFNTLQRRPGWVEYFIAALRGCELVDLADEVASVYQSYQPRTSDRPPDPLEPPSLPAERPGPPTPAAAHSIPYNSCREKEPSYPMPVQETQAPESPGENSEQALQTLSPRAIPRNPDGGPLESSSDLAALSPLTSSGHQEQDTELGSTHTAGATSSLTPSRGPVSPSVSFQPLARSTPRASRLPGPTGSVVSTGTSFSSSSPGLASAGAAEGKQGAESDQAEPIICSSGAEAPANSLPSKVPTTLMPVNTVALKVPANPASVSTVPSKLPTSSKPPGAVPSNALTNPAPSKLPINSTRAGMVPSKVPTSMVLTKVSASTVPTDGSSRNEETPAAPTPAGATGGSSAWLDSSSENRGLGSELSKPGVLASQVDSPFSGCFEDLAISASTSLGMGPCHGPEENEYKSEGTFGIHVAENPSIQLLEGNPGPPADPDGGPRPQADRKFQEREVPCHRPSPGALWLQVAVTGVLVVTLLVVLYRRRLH", "sequence of UniProt P01024 (whole entry, looked up)": "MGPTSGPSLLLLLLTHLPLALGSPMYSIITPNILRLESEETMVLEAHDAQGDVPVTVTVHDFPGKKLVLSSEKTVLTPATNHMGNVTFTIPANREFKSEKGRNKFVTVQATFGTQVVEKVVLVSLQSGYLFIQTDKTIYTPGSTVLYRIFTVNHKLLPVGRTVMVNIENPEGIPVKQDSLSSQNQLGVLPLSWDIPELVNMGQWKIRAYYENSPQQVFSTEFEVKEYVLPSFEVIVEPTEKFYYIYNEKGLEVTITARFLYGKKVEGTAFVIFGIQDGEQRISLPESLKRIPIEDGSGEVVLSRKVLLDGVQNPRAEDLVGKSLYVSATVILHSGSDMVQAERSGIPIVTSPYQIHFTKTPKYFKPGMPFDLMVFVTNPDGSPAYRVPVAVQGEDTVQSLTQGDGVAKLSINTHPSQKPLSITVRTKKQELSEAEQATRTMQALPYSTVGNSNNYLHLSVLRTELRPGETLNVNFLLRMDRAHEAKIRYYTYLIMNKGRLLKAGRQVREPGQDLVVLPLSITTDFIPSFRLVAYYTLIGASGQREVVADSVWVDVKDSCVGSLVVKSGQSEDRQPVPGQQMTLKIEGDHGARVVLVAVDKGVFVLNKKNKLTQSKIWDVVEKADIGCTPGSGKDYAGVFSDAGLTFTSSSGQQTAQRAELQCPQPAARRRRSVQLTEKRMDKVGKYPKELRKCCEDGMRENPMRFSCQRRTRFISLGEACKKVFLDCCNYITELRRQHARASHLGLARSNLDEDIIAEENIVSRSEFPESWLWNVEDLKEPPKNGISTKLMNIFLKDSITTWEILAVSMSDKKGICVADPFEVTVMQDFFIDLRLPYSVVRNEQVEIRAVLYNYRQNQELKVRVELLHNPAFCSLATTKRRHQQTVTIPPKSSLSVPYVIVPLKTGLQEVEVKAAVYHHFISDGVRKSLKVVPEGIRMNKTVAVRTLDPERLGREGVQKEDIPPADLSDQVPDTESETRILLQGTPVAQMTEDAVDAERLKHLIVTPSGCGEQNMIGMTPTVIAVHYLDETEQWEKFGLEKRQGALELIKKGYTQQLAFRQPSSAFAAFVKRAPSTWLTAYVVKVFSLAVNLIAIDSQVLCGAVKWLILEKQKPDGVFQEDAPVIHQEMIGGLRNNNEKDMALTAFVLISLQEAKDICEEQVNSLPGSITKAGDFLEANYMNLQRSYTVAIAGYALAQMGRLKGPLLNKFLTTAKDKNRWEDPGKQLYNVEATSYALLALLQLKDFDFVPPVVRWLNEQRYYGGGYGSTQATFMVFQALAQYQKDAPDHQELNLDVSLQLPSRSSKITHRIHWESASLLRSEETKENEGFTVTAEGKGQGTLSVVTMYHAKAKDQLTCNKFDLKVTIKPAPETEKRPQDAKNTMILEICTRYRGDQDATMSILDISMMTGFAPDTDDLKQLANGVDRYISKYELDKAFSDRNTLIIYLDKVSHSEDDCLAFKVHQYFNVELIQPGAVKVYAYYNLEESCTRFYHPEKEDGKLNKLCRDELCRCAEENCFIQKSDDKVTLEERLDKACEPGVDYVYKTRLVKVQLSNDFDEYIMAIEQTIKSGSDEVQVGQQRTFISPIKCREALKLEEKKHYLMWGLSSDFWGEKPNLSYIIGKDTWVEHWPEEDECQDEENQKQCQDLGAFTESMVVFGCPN", "sequence of UniProt P05164 (whole entry, unmodified, looked up)": "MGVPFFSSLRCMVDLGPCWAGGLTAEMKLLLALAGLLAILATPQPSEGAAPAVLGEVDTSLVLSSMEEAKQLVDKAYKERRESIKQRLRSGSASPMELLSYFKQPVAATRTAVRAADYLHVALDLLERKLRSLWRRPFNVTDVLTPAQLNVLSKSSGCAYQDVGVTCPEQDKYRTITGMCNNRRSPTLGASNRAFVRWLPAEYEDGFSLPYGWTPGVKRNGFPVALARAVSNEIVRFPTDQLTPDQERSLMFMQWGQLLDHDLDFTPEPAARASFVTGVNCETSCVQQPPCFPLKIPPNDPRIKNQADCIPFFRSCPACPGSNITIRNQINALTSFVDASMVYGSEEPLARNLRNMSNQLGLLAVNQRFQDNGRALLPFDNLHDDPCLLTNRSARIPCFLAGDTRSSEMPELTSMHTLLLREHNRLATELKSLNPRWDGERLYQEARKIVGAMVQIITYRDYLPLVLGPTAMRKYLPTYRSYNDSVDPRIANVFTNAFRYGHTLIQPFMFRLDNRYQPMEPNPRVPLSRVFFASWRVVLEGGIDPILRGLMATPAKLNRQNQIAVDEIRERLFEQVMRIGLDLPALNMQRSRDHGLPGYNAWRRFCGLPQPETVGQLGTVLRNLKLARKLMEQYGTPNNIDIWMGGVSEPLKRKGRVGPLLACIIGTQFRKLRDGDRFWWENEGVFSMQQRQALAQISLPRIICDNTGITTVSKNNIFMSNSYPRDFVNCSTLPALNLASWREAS", "sequence of UniProt P08603 (whole entry, looked up)": "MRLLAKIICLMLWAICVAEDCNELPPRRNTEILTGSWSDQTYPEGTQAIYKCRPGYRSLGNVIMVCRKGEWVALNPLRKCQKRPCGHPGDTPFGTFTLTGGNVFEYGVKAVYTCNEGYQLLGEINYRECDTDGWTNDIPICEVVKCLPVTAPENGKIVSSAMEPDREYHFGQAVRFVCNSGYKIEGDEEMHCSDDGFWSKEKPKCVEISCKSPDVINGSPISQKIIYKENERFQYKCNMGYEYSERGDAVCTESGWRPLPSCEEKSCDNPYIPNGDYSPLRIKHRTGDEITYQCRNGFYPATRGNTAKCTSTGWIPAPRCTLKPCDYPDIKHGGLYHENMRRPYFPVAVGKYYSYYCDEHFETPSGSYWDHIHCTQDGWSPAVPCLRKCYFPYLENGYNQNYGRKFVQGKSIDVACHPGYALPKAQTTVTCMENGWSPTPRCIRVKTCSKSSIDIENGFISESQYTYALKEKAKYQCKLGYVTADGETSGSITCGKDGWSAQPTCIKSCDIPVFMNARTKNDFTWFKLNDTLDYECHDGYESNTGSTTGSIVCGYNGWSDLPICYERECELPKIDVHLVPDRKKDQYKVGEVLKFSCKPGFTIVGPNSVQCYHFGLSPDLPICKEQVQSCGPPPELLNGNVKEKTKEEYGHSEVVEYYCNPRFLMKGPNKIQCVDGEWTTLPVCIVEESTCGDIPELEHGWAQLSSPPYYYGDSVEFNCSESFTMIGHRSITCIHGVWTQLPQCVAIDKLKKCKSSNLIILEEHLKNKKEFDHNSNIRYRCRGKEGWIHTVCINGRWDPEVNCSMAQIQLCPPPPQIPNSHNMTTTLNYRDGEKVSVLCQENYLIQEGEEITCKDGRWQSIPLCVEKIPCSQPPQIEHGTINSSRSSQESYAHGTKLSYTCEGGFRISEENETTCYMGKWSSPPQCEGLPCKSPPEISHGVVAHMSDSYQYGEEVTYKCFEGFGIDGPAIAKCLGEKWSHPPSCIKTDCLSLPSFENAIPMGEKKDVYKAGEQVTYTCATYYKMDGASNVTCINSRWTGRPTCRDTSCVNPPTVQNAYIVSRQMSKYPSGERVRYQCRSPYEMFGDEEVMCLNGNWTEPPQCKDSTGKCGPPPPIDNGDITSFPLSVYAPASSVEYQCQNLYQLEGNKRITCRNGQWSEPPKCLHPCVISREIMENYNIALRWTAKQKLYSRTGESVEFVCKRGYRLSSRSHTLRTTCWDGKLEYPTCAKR", "sequence of UniProt Q03405 (whole entry, looked up)": "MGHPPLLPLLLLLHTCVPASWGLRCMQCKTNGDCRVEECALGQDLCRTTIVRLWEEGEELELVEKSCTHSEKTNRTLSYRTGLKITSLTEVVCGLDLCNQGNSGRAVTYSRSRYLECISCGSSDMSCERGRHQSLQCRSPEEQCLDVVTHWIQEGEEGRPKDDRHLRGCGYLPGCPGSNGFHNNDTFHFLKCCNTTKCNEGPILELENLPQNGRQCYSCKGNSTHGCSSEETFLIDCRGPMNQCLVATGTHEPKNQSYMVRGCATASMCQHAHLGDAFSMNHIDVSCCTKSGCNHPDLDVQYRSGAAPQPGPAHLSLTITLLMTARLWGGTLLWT"}
{"Molecule": "PRTANILKPLMSPPSREEIMATLLDHD (REV3L RBM1, 1872-1898 (Homo sapiens); N-terminal FAM label)", "tested on": "MAD2L2 R124A", "test": "SEC", "test system": "peptide", "setting": "added: FAM-REV3 peptide", "quantity": "binding", "value": "binds"}
{"Molecule": "PLAUR (Homo sapiens, UniProt Q03405)", "tested on": "F12 zymogen, FITC label (Homo sapiens)", "test": "MST", "setting": "added: Zn2+", "quantity": "Kd", "value": "0.087 to 0.1 µM"}
{"Molecule": "CPSSHSSLTERHKILHRLLQEGSPS (NCOA1 676-700 peptide; N-terminal FAM, PEG5 linker, C-terminal amide)", "tested on": "T1, NR1I2 ligand-binding domain, GST fusion (Homo sapiens)", "test": "TR-FRET", "test system": "peptide", "quantity": "Kd", "value": "0.115 µM"}
{"Molecule": "GCACTGCTACGGCTGATCACATAGGGTGAAAAGAAAAACGGGAGGTTCGGCGTGTTCGTTGAACGTGCGCCACTTGTCGACTTAGTGTCCTGTTCGGAAGAGTCCAGGGAACAGACACACTGGTAACCCTAAACTTCAGCGTTAGGGTTCGGGTCGGCGTTCGGACCGTCCCATTCGGCATCAGTCGTCGGATCGCGTCATCCGCGAGGCGGCGACACGTAACTCGAGGCGA (dsDNA)", "tested on": "T2, AfsR 1-980 (Streptomyces avermitilis)", "test": "EMSA", "test system": "double-stranded DNA, one strand shown", "quantity": "binding", "value": "binds"}
{"Molecule": "PRTANILKPLMSPPSREEIMATLLDHD (REV3L RBM1, 1872-1898 (Homo sapiens))", "tested on": "MAD2L2 R124A", "test": "competition with FAM-REV3 peptide, competitor, fluorescence polarisation", "test system": "peptide", "quantity": "IC50", "value": "3.4 ± 0.4 µM"}
{"Molecule": "B1 (TNKS2 ARC4 domain)", "tested on": "SASH1 396-564 (Homo sapiens, UniProt O94885)", "test": "MST", "quantity": "Kd", "value": "1.7 ± 0.4 µM"}
{"Molecule": "aspterric acid", "test system": "Arabidopsis thaliana Col-0 seeds", "setting": "25 µg/mL, seed germination", "quantity": "hypocotyl length", "value": "0.049 cm"}
{"Molecule": "insulin human", "test": "refers to: PPAT mRNA", "test system": "EcoHIV-infected mouse, brain", "setting": "i.p., dose not given", "scale": "relative to: PBS", "quantity": "fold change", "value": 1.25}
{"Molecule": "B2 (FAM222A 151-452)", "tested on": "MAVS", "test": "pull-down", "quantity": "binding", "value": "binds"}
{"Molecule": "DPDPE", "test": "RP-HPLC", "test system": "HALO Phenyl-hexyl column", "setting": "25 µM, formic acid/methanol, 10 min gradient", "quantity": "retention time", "value": "8.73 min"}
{"Molecule": "PCKCAPSRQLVQVWLQAKE (REV3L RBM2, 1996-2014 (Homo sapiens))", "tested on": "MAD2L2 R124A", "test": "competition with FAM-REV3 peptide, competitor, fluorescence polarisation", "test system": "peptide", "quantity": "IC50", "value": "8.9 ± 0.3 µM"}
{"Molecule": "B3", "tested on": "vraR (Staphylococcus aureus, UniProt Q7A2Q1)", "test": "SPR", "scale": "relative to: wild type, higher = weaker binding", "quantity": "affinity loss", "value": "17 fold"}
{"Molecule": "spn N-terminal deletion (Staphylococcus aureus)", "tested on": "MPO mature, native (Homo sapiens, UniProt P05164)", "test": "SPR", "quantity": "Kd", "value": "0.0489 µM"}
{"Molecule": "CFH mature (Homo sapiens, UniProt P08603)", "tested on": "C3b (human, UniProt P01024)", "test": "SPR", "quantity": "binding", "value": "binds"}
{"Molecule": "PRTANILKPLMSAPSREEIMATLLDHD (REV3L RBM1, 1872-1898 P1884A (Homo sapiens))", "tested on": "MAD2L2 R124A", "test": "competition with FAM-REV3 peptide, competitor, fluorescence polarisation", "test system": "peptide", "quantity": "IC50", "value": "8 ± 0.4 µM"}
{"Molecule": "B4 (Mena EVH1 1-113)", "tested on": "ActA, N-terminal 5-TAMRA (Listeria monocytogenes)", "test": "fluorescence polarization", "quantity": "Kd", "value": "15.3 µM"}
{"Molecule": "B5 (FAM222A)", "tested on": "MAVS", "test": "pull-down", "quantity": "binding", "value": "binds"}
{"Molecule": "CGACAAGAGAAATCGGAAATTAAAAAACACGCATGGGACTCTCACAGGCTAGAGCGACGAGAGCAGCACAAATACCCCTAGATACCCCAGACCCCTGATGCTCGATGAATGCCGCTATAGCTAGGGGGTATGGCGCCAGACATGAATTCACAGCGTTTCGGCGGCCGGCTGGCGCTTGTCACAGGTGCAGGC (dsDNA)", "tested on": "T2, AfsR 1-980 (Streptomyces avermitilis)", "test": "EMSA", "test system": "double-stranded DNA, one strand shown", "quantity": "binding", "value": "binds"}
{"note": "Repeated from above:"}
{"Molecule": "DPDPE", "test": "RP-HPLC", "test system": "HALO Phenyl-hexyl column", "setting": "25 µM, formic acid/methanol, 10 min gradient", "quantity": "retention time", "value": "8.73 min"}
{"Molecule": "PCKCAPSRQLVQVWLQAKE (REV3L RBM2, 1996-2014 (Homo sapiens))", "tested on": "MAD2L2 R124A", "test": "competition with FAM-REV3 peptide, competitor, fluorescence polarisation", "test system": "peptide", "quantity": "IC50", "value": "8.9 ± 0.3 µM"}
